Experimental data of several laboratories.
Every numbered part comes from another study and shows a few of its results, in no order. Changes are numbered by the printed parent chain.

Study 1 — technique: RNA Bind-n-Seq; form: RNA; sample: in vitro; tested at: 20 nM; setting: 6-mer, flanks averaged, single round; added: 150 mM LiCl; reference: input library; reading: higher = stronger binding
Target: TAR DNA-binding protein 43, full length, His tag (TARDBP, Homo sapiens, UniProt Q13148, residues 1-414)
Oligonucleotide	6-mer enrichment (R)
UGCAUA	0.92
GGAUUG	1.04
ACGUUU	1.01
GUAUCG	0.941
UGAGAG	1.16
CCCGAC	0.904
UUGUUC	1.06
CUCCCU	1.15
GCCCCG	1.1
UUGAUU	1
GACCCC	1.07
CCUAGU	0.917
AUCAAC	0.796
CACCGC	0.981
AGAAUA	0.935
GAGGAC	0.991

Study 2 — target: XBP1, bZIP domain (human); technique: DHFR protein complementation; sample: yeast; reference: wild-type JUN-FOS pair; reading: higher = stronger binding
Setting: single substitutions, most at no-binding floor
Starting sequence: JUN, bZIP domain (human); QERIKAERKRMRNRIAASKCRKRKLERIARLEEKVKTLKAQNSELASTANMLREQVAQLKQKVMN; partner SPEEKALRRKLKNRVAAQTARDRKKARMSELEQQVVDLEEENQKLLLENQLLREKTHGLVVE
Change	binding fitness [natural log]
E32V	-1.3
A29K	-0.811
L59V	-0.692
L45D	-1.5
V56F	-0.388
L52I	-1.32
L31V	-1.33
A57M	-1.13
Q58R	-0.719
L38D	-1.57
E44M	-0.852
L31I	-1.56
I28A	-1.44
R53G	-1.41
A57G	-0.694
K39W	-1.38
K36P	-1.5
K34H	-1.12
N42G	-1.4
A57R	-1.17
L52K	-1.3
E32W	-1.46
L52T	-1.46
Q58S	-0.706

Study 3 — technique: EMSA with sequencing; form: double-stranded DNA, one strand shown; sample: in vitro; tested at: 10 and 20 nM; reference: negative control set to 0; reading: higher = stronger binding
Target: Hepatocyte nuclear factor 3-alpha (Foxa1, Mus musculus, UniProt P35582, residues 1-468, full length assumed)
Setting: whole designed probe, mean of two concentrations, ends assumed
Target sequence (chain): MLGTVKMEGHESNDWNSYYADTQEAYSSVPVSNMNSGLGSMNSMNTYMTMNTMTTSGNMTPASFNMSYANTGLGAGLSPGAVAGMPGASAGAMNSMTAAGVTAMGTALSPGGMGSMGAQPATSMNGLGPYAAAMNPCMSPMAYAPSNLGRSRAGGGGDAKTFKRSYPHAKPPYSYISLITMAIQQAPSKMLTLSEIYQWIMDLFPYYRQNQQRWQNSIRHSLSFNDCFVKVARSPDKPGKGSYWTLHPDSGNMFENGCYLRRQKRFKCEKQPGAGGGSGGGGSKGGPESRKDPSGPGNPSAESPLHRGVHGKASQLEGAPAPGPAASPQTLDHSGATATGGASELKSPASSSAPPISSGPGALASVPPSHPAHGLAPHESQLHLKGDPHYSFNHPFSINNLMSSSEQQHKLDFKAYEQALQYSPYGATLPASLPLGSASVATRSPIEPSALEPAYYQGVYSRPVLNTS
Oligonucleotide	normalised bound fraction [ratio]
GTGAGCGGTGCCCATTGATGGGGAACTTTGCAGAGCTTTTCCAGTGAGAGTATCCTAGATACTTGGGGTCATGGCATTACCTTTACATTAGGGCGACAGCAGCTGCAATCTAAACAAAGTAAACAAGTCTGCTAGTGCTTGCCTCTTAAACTAGCCAGGTAGTAGGGTATTTGAGAGTTTAGATAGCCATGCATGTTATATAGGCAGGAAGCAGACAAATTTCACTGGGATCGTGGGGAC	0.463
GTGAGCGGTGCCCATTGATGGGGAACAGTAGCTGAGTCATCTCTGAGAAGAACATTCCCATCTTCAATCGCTGCGGCTGCCTGTTGTGGACGGCCCGGCTGACACGGGTAACTTGATCTGTTTACTCTGGGATTCCTAAGCCCACAGAGTGAGGCCCTCACACGGGGCCTCTCCCCGGGCATCCTGGGCGAGGAGCCCTGGCCCAGCCAGAGTCCCGTTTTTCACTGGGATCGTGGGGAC	0.284
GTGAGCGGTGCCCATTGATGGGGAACATCCACGAACCTGGCCCTGTCTGGTAACCACAGTGAACCATCGCAAGATACAGCACTATGTGCCCAGTTGGGCTGGTAATGTCACACAAATGTGTCAACACTGGCACATCCTCAGGGACACGGAAGTGTACTTGTTTTTGGAGAGGGACTAGACCTTCATCCTTGAGGTGAAGAAGATTTTCTCTCCAGGGTGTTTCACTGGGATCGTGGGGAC	0.0654
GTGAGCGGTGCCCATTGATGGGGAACGCCGGAAATTACCCACAATCTCTGTTTTGGAAGTAATTAATCTTCGAATGTAGGAGCCCCTTTGTGGTGGAAAGCGCACGCTGACACTTTTGTGTAATCTCCCAGCTTAGCATATTGACAAACTGGTGGCTGTTACTTTGATCCCGGGCTGCCGGCTCTGAAAAGGCAAGCCAGCTCCGGGCTGCCCCACCGGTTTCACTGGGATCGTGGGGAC	0.0168
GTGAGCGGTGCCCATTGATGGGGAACACTCGTATACTTATGTGAATGTATATATTTATGTGTTGATAAATAAAATGATACACAAAAATTAGAAAATAACATTGAAAGACTGAACATAAAAGTAATCTAGAAGAGATTAATTCTCGAATGCACAGTTTAAAAAGAATCAAAAGTATATCTTCAAGCTCCTTAGAATATAATGAAAATGGGGACTTATAATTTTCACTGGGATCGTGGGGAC	0.103
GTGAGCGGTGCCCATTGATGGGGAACGGAGCAATGCCGGCTGGTGGCCTGGCCGCTCCGCCCCTTCCCTACCCCTCGCGGAGGGCCCGCCCCCTGCCCCGCGCCGGCTAGCGGAGGAGAGTAATTTCAACAGGAGCGCAAAATGGCGGAACCGCCGAGCCCCGTGCACTGTGTCGCTGCCGCGGCCCCCACCGCCACCGTCTCGGAGAAAGAACCGTTTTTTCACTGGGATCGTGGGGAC	-0.0227
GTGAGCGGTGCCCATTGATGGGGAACTATGAATTACAAACATTAAAATTGGCTACAACTCCTCTTCAACCAATTACTAACAAGAAGCACCTAAAAGGTCAAAATCATGAAACACCAAAGTAAACAGACATGTGTGCACCTTTTGCTAAATACCAGTCACATAATCCAACATGTATTCATTATATTTTTGACACTAGGAAATAGTTTAAACCTTGGTTTATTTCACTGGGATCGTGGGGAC	0.412
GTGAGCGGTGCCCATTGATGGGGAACAAGGCATCCCATAGATGATGGTTACAAATCAGCACAGGATTAAAATAGTGCCCCCAACACATTAAAAGCTGACTCTGCTGGGTGTGGCTTAAGTAAACATCTCGTCTCAACTGGACAGCTACCCAGTAACACAGCCACAGAAACCGAAAATATGTGAGTACATAAGTAAAGTGCTTCTTTTGGAGGGGGTGGGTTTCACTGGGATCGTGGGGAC	0.459

Study 4 — target: CCND2, cyclin fold, Cln2 fusion (human); technique: yeast growth competition, sequencing; sample: yeast; setting: weak parent motif; reference: not given; reading: higher = stronger binding
Starting sequence: CDC25A docking peptide (human); PPHRRRLLFACSP; partner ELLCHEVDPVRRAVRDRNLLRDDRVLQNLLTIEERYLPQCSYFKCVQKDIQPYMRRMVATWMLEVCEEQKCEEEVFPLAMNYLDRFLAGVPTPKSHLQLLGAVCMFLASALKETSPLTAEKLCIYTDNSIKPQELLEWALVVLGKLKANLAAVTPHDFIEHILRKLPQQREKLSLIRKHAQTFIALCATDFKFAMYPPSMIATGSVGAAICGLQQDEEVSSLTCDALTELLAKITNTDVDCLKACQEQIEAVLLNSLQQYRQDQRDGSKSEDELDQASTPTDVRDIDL
Change	normalised enrichment score
P13K	0.00304
C11I	0.245
R5E	-0.0962
R6G	-0.24
R5D	-0.0403
A10D	0.0595
L7T	0.568
L7E	0.0537
L7H	0.0602
A10I	-0.374
P13G	0.42
P1F	-0.125
P13L	-0.177
L8T	0.309
R5M	0.137
H3Q	-0.123
R4T	0.294
R6S	0.194

Study 5 — technique: RNA Bind-n-Seq; form: RNA; sample: in vitro; tested at: 100 nM; reference: input RNA pool; reading: higher = stronger binding
Target: RING finger protein unkempt homolog, zinc fingers 1-6, SBP tag (UNK, Homo sapiens, UniProt Q9C0B0, residues 30-357)
Sequence of UniProt Q9C0B0 (30-357, looked up): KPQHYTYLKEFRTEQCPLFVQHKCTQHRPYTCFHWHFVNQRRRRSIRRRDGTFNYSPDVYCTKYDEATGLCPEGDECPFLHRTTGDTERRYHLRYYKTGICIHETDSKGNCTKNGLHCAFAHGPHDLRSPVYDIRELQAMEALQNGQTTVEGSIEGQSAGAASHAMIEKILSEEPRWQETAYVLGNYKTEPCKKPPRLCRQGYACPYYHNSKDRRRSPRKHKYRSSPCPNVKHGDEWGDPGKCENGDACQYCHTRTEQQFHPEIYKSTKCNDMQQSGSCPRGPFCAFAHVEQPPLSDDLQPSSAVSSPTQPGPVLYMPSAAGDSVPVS
Setting: RNA with constant flanks, vertebrate orthologous sites, ends assumed
Oligonucleotide	bound/input enrichment
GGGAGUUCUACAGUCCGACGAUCGAAAUCCCCCAUUGUCACUGAGAACCACCAAAUCUGACUUUUACAUUUGGUCUCAGAAUUUAGGUUCCUGCCCUGUUGGUUUUUUUUUUUUUUUUUUAAACAGUUUUCAAAAGUUCUUAACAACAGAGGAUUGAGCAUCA	1.61 ratio
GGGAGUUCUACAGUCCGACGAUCAAGGAGCAGCACAGGCUAUUGAGCUUUGGGGAAAUGAGCUUUUUGCUUUUUGUAUUUAAAUAGGAUCCUUUUAUACGACGGGUGCUUUUGGUGGGAAUGCACCAGGCUCUGCGCUUCAGACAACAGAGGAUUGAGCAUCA	0.846 ratio
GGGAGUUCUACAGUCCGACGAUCCUGUUGUGUGAAAUAUGUCUACCAAGAGAAGUAUCACACCAUAAACAUUGUCAAAUAAUUUAGCUACAAUCUUCUUAGAUACCAAAUCAUAUGUCAAGCAUUUAAAGUGAAUUUGAGAUGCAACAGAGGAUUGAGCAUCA	0.673 ratio
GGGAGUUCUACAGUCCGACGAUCCGGGGUGCACCUGUGGGGCGCUGCUGGCCGCUUAGCGUCGUUUGAUUUGUGACCUUGACAUAAUAGAUAGGCUUGUGGUUUUUUUUAAUUUAAAGAUAUUAAGACUUAAUUCACUAAAAUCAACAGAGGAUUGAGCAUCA	0.592 ratio
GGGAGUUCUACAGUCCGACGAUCUGGCAUGGGCGCUCUGCAGGGAGCCCCUGGCUGCUUACGCCAGCUAAUUUGGGGCCUGGAUAUUUCUGGUAGGCUUGUGGCUUUUUAAUUUAAAGAUAUUAAGACUUAAUUCACUAAAAUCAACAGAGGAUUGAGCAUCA	0.485 ratio
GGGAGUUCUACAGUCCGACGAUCUUACAGUCAUUGAUGGACUCUAUUUUUUUAUUAUUACUUGGACCUUGGUCGUUUUUAUACUAGCAAAAUGUCUUGUUUUGAUUUGUGUUCUUUUGGUUUUUGUUUUGUUUUUAUUUUUUGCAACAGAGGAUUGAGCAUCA	1.78 ratio
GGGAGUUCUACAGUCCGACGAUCUCUCAUUCCAGGUUGGACCUAGUGGGAAAGUCAUAGGAAUUGACCACAUUAAAGAGCUAGUAGAUGACUCAAUAAAUAAUGUCAGAAAGGAUGAUCCAAUGCUUUUGUCUUCAGGGAGGGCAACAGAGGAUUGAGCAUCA	0.902 ratio
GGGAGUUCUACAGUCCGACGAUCUCCGCUGAACCCCAUUUCUUCUGUUUCAUAGUGCAGAAGUAUUCUUUUCAAUUAUAUUUUUAGUGGACUUGUUUUAAUUUUAGAGGAAUUUCCAGCACAGAUACUGUGAGCUGACAUGGACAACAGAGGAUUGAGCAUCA	6.91 ratio
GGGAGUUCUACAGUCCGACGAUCGGGUGGCCGGUGGGGGAAUCCCAUGCCCUGGCCUUGCCUCCCCUCCCUGCCACCCGCUCCUAGUUAUUAUUUUUUAACCACCAUGUGAUUAAGGUCGGCGCUGCCUCCCCCGACCCGCUCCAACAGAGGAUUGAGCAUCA	1.41 ratio
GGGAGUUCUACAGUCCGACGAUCCCUCAGAUCUAAGCCAACAGCAGUUCUAAAAUACUAUUUAUUUGUCUGUAAGUUUGUACAUAGUAAUAUCAACCUCAUAUUGUUGCAGUUUUUUUUUUCCAUGUUGUGUUUUGUUUUAAACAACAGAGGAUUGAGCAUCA	0.896 ratio
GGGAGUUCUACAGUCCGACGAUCAGAACCUAUUUGCUGUCCCGCUACUGCCACGGGUGUGUCGGAGGCGCUGCAAGGGGUCCAUGGUUUUUUUUUUUUUGCUGCCUCAGUCCCCAGAGCCUUCAAGCGGCGGUGGCAGUAGAUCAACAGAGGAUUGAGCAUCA	0.355 ratio
